Published values collected from several papers.
Each line is one published result; not all experiments were run side by side. Numbers after ± are the reported error.
HTR3A: 5-hydroxytryptamine receptor 3A (HTR3A, Homo sapiens, UniProt P46098)
UniProt P46098, sequence (whole entry, looked up): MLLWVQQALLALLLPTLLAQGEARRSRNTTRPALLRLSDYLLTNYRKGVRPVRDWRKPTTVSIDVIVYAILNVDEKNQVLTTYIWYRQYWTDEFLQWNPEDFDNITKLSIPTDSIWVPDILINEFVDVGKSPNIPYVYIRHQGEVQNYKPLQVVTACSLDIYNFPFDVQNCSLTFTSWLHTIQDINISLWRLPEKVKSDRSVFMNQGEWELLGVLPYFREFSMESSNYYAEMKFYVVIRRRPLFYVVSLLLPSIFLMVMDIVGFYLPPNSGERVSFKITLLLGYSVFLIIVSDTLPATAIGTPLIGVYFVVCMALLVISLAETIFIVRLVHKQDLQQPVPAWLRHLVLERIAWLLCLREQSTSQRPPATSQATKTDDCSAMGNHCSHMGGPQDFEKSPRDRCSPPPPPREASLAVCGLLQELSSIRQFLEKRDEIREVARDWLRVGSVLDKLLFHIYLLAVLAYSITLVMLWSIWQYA

Under “inhibition of binding”, `O=C(Nc1cnccc1Cl)N1CCN(Cc2ccc3c(c2)OC(F)(F)O3)CC1` is recorded as 0% (HTR3A; radioligand binding; 50 µM, with: [3H]GR-65630).
The inhibition of `Cn1cccc1-c1cccnc1` is reported as -5.15% (HTR3A; binding; 50 µM, mean).
With `CN(C(=O)n1cnc(-c2ccc[n+]([O-])c2)c1)C1CCCCC1` the inhibition was -6% (HTR3A; radioligand binding; 50 µM, with: [3H]GR-65630).
`Cn1cc(C2=C(c3ccc(Cl)cc3Cl)C(=O)NC2=O)c2ccccc21` has a maximum inhibition of 10.5% (human coronavirus OC43; virus-induced cell killing; MRC-5; screen).
`O=C(Nc1cccnn1)N1CCC(=Cc2cccc(Oc3ccc(C(F)(F)F)cn3)c2)CC1`: “inhibition of binding” -16% (HTR3A; radioligand binding; 50 µM, with: [3H]GR-65630).
`CN1[C@@H]2CC[C@H]1C[C@@H](OC(=O)c1cc(Cl)cc(Cl)c1)C2` has a Hill coefficient of 1.1 (HTR3A; binding, antagonist, radioligand binding).
`CN1CCc2[nH]c3ccccc3c2CC1.O=C(O)/C=C/C(=O)O` — result for activity: “inactive” (HTR3A; concentration not given).
With `O=C1CN=C(c2ccccc2)c2cc(/N=N/c3ccc(S(=O)(=O)O)cc3)ccc2N1` the inhibition was 82 ± 4% (HTR3A; 5-HT-induced current, inhibitor, whole-cell patch clamp; CHO cells; 50 µM, visible light, holding -30 mV, with: 5-HT).
`CCN(CC)CCCC[C@H](NC(=O)[C@H](CC(C)C)NC(=O)[C@H](C)NC(=O)[C@H](Cc1ccccc1)NC(=O)c1ccc(C(C)(C)C)cc1)C(=O)N[C@@H](CO)C(=O)OC` gave a specific binding of 121% (HTR3A; antagonist, radioligand binding; 10 µM; reference: control binding).
For `Cc1ccc(Nc2nccc(N(C)c3ccc4c(C)n(C)nc4c3)n2)cc1S(N)(=O)=O`, the maximum inhibition was 0% (human coronavirus OC43; virus-induced cell killing; MRC-5; maximum over 10 doses).
For `O=c1ccc2ccccc2o1`, the inhibition was -3.33% (HTR3A; antagonist radioligand binding; 10 µM, SafetyScreen44).

Some of these lines once more:
For `O=c1ccc2ccccc2o1`, the inhibition was -3.33% (HTR3A; antagonist radioligand binding; 10 µM, SafetyScreen44).
